Published values from different studies.
Several values in a cell are separate wells, animals, samples, runs or records.
Action: inhibitor
PIK3CA: Phosphatidylinositol 4,5-bisphosphate 3-kinase catalytic subunit alpha isoform (PIK3CA, Homo sapiens, UniProt P42336)
Sequence of UniProt P42336 (whole entry, looked up): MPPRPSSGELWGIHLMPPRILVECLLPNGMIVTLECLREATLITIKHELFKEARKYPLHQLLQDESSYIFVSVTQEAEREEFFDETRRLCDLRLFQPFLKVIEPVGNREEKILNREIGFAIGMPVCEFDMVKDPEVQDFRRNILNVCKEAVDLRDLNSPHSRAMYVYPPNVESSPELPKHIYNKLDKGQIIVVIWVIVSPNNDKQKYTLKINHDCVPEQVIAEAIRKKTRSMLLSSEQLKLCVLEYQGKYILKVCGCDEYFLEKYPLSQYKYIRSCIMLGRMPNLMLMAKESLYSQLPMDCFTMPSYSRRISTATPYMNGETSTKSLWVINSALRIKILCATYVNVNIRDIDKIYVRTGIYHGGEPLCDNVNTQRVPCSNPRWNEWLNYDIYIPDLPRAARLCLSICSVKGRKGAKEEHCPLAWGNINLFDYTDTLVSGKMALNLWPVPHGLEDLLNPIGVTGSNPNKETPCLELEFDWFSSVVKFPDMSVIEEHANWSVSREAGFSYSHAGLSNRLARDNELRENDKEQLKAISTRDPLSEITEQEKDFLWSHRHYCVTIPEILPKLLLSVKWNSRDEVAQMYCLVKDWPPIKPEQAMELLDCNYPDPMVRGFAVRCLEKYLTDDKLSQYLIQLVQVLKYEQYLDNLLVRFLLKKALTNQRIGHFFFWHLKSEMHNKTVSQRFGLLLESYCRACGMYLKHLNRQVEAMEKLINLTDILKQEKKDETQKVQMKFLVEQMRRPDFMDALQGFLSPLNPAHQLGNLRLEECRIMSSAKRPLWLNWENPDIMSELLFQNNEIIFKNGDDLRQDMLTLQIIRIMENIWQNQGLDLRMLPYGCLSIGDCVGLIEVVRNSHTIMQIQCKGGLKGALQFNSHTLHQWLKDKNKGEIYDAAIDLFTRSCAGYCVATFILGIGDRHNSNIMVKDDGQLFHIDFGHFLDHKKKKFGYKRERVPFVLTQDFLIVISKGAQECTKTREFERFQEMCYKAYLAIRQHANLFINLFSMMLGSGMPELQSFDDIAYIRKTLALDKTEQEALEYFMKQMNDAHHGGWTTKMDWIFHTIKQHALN

Structure (SMILES)	target	observed	method	notes	IC50
Cc1nc(N(C)c2ccc3c(c2)/C(=C/c2cn(C)c4ccccc24)C(=O)N3C)c2ccccc2n1	PIK3CA	enzyme activity	ADP detection		71.7 nM
O=C1NC(=S)S/C1=C\c1ccc2c(c1)OCO2	PIK3CA	enzyme activity	radiometric		270 nM
O=C1C(Nc2ccc(Cl)cc2)c2ccccc2N1Cc1ccccc1 (centres unmarked)	PIK3CA	enzyme activity	ADP detection		29.4 nM
Cc1cc(NC2CCN(C)CC2)ccc1-c1cc2c(N3CCC[C@H](C(=O)NCc4ccc(OC(F)(F)F)cc4)C3)ncnc2[nH]1	PIK3CA	enzyme activity	ATP luminescence		> 8000 nM
Cc1nn(-c2cccc(N)c2)c(=O)c2cnc(Nc3ccc(N4CCNCC4)cc3)nc12	Phosphatidylinositol 4,5-bisphosphate 3-kinase catalytic subunit alpha isoform, with p85 alpha (PIK3CA, Homo sapiens, UniProt P42336)			with PIK3R1 (p85α)	> 10000 nM
CCN(CC)CC(=O)Nc1cccc(-n2cc(-c3ccc4ccc(-c5cn(-c6cccc(NC(=O)CN(CC)CC)c6)nn5)cc4c3)nn2)c1	PIK3CA	enzyme activity			> 10000 nM
Cc1nc(Nc2ccc3c(c2)/C(=C/c2cn(C)c4ccccc24)C(=O)N3C)c2ccccc2n1	PIK3CA	enzyme activity	ADP detection		49.5 nM
COc1ccc(CN2C3(NC(c4ccc(OC)cc4)C24C(=O)Nc2ccccc24)C(=O)Nc2ccccc23)cc1 (centres unmarked)	PIK3CA	enzyme activity	ADP detection		964 nM
Cc1nc(N(C)c2ccc3c(c2)/C(=C/c2ccccc2)C(=O)N3C)c2ccccc2n1	PIK3CA	enzyme activity	ADP detection		25 nM
O=C(CCc1ccco1)N1C(=O)C2(NC(c3ccc(F)cc3)C3(C(=O)Nc4ccccc43)N2Cc2ccc(F)cc2)c2ccccc21 (centres unmarked)	PIK3CA	enzyme activity	ADP detection		889 nM
O=C1NC(=S)S/C1=C\c1ccc(-c2cc([N+](=O)[O-])ccc2O)o1	PIK3CA	enzyme activity	radiometric		4000 nM
Cc1nc(N(C)c2ccc3c(c2)/C(=C/c2ccccc2C)C(=O)N3C)c2ccccc2n1	PIK3CA	enzyme activity	ADP detection		33.7 nM
O=C1Nc2ccccc2C12NC(c1ccc(Cl)c(Cl)c1)C1(C(=O)Nc3ccccc31)N2Cc1ccc(Cl)c(Cl)c1 (centres unmarked)	PIK3CA	enzyme activity	ADP detection		685 nM
CC(=O)N1c2ccc(-c3ccc(CNC(=O)c4cn5cc(-c6cnc(N)nc6)nc(N6CCOCC6)c5n4)cc3)cc2CC[C@@H]1C	PIK3CA	kinase activity	Kinase-Glo		98 nM and 98.2 nM

A few entries again:
Structure (SMILES)	target	observed	method	notes	IC50
Cc1nc(N(C)c2ccc3c(c2)/C(=C/c2ccccc2)C(=O)N3C)c2ccccc2n1	PIK3CA	enzyme activity	ADP detection		25 nM
O=C1NC(=S)S/C1=C\c1ccc2c(c1)OCO2	PIK3CA	enzyme activity	radiometric		270 nM
